Published values pooled from the literature.
Numbered parts are unrelated; each lists some results of a single study.
Chain of UniProt Q15418 (whole entry, looked up): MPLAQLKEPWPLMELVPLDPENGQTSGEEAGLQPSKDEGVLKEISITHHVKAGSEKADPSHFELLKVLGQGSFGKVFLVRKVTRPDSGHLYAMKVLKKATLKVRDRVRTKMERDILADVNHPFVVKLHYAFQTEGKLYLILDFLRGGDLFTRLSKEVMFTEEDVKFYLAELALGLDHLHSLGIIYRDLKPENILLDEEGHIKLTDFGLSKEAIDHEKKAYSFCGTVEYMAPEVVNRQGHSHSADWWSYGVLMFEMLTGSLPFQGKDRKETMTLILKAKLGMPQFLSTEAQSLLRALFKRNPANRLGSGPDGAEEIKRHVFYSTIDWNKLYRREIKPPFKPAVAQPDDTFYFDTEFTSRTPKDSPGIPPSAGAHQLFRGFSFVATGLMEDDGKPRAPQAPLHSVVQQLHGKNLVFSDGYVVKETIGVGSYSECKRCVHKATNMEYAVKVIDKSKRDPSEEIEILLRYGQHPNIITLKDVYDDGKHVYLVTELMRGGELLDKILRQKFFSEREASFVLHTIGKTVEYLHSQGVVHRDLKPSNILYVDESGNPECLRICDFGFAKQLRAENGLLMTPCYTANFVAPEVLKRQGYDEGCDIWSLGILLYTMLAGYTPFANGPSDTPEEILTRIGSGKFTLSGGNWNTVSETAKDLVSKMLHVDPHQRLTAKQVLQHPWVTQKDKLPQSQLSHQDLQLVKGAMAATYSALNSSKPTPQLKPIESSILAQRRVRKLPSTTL
Chain of UniProt P24723 (whole entry, looked up): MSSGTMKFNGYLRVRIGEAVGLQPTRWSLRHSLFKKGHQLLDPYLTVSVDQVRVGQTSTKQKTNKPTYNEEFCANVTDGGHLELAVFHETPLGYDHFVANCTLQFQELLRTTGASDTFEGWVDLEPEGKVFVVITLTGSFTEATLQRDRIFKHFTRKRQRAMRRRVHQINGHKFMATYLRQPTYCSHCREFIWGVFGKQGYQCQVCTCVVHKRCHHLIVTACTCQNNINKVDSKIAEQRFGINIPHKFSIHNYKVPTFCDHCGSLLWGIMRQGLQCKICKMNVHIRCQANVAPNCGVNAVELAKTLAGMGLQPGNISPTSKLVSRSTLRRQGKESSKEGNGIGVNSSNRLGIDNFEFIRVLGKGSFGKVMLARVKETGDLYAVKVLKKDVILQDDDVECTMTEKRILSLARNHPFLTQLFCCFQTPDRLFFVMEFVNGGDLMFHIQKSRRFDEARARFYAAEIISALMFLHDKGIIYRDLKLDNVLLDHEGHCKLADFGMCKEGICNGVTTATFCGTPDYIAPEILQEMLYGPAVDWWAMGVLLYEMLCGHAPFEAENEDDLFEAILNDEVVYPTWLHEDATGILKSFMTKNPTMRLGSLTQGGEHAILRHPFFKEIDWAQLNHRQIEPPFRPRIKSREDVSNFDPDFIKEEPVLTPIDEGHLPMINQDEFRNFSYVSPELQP
Chain of UniProt Q9UF33 (whole entry, looked up): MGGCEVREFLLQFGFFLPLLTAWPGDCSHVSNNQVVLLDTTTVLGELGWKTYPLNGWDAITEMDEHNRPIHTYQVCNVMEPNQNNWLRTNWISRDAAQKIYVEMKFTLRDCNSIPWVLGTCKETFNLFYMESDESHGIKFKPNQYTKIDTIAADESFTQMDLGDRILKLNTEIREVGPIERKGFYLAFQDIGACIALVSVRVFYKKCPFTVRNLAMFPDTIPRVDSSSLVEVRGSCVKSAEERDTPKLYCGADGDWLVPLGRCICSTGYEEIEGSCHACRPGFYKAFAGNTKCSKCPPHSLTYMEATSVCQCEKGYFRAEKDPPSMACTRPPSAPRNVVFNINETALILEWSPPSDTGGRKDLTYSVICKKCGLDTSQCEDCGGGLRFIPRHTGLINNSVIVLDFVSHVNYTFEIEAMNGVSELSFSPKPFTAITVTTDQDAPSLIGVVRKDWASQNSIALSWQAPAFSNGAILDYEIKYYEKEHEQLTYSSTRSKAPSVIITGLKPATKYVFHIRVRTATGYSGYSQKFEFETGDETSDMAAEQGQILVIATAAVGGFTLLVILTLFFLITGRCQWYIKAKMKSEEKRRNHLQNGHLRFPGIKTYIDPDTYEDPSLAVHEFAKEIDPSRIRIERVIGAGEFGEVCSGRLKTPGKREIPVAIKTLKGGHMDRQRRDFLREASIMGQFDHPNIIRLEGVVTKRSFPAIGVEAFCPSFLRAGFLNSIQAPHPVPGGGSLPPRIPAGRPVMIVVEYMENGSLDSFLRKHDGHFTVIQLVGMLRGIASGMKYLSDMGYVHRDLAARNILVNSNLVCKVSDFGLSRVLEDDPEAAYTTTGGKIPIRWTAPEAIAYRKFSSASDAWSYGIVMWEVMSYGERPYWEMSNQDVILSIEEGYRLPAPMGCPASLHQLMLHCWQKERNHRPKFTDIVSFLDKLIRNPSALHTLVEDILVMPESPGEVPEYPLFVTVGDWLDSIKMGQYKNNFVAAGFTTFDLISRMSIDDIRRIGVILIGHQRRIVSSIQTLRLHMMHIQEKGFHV
Chain of UniProt Q9Y2U5 (whole entry, looked up): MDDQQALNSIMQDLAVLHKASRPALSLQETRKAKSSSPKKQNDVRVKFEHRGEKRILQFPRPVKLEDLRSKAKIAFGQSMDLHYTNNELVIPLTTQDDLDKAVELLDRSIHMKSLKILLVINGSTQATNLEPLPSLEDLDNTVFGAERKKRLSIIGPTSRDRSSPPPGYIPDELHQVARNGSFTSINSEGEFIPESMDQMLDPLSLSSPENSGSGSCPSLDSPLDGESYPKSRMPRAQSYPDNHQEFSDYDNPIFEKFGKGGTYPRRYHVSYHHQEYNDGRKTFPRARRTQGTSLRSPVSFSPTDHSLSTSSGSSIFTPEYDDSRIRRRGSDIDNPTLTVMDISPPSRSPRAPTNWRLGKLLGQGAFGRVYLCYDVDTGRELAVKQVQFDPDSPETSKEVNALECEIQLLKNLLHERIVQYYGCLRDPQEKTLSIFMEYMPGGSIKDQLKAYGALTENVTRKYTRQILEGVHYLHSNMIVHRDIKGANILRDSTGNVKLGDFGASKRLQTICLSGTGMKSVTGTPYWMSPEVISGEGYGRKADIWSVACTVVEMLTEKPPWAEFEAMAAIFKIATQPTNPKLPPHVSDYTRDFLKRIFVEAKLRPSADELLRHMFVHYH
Chain of UniProt Q16539 (whole entry, looked up): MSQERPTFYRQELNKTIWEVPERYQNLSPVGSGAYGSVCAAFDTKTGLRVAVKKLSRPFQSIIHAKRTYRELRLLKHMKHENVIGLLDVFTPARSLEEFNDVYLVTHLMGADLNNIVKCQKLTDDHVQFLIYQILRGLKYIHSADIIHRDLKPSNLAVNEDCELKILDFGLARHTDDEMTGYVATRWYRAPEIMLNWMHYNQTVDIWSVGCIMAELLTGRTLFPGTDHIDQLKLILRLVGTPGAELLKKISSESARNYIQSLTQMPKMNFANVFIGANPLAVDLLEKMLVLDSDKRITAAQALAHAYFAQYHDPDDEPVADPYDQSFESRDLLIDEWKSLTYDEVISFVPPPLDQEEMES
Chain of UniProt P54646 (whole entry, looked up): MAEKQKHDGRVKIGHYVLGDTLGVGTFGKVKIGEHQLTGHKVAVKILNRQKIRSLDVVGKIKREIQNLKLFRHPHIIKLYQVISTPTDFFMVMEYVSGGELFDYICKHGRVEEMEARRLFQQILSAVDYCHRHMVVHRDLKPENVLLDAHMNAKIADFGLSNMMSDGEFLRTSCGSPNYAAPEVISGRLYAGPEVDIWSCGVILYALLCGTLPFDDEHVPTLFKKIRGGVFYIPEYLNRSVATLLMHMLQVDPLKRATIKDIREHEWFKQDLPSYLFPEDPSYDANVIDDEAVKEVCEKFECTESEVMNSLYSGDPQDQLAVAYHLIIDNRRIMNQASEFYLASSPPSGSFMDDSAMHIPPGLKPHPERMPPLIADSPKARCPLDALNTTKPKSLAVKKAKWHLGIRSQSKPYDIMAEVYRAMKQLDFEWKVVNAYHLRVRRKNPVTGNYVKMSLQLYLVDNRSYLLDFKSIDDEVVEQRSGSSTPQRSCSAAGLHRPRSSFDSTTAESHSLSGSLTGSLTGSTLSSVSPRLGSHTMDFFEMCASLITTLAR
Chain of UniProt P23443 (whole entry, looked up): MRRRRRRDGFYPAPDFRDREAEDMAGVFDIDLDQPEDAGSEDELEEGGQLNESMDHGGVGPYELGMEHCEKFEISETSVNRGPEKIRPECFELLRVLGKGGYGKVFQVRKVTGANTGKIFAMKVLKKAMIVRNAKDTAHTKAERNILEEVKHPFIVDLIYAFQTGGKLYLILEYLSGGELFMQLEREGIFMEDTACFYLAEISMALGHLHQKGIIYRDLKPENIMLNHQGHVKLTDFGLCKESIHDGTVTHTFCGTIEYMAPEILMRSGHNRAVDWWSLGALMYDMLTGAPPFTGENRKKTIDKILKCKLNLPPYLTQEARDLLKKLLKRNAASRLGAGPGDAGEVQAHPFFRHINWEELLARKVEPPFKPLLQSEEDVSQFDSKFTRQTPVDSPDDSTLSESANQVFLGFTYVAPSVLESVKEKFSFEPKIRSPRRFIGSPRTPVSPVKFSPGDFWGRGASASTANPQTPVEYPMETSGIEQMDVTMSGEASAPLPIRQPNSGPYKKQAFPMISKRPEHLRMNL
Chain of UniProt O00506 (whole entry, looked up): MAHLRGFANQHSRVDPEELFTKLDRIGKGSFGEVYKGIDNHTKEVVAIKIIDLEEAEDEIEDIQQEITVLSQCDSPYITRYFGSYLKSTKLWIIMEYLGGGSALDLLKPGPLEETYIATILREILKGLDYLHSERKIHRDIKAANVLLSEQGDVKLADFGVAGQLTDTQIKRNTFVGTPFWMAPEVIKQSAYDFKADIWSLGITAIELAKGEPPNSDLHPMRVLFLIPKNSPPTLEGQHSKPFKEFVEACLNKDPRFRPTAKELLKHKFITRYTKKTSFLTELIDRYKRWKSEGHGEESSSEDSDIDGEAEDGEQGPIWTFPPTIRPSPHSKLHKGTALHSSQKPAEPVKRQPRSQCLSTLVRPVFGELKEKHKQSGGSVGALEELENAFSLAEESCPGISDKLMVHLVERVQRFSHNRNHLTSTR

Series 1 — host: cancer patients; sample: plasma; route: oral; time: cycle 0 day -3; setting: single dose
Structure (SMILES): COc1ccc(-c2c(Nc3ccccn3)[nH]c3c(C4=CCCCC4)c(-c4ccccc4)nn3c2=O)cc1
It gave 37100 ng·h/mL for “AUC(0-72 h), geometric mean” (100 mg).
The “AUC(0-72 h), geometric mean” was 54600 ng·h/mL (200 mg).
For 400 mg: “AUC(0-72 h), geometric mean” read 31900 ng·h/mL.
It gave 42900 ng·h/mL for “AUC(0-72 h), geometric mean” (150 mg).
For 50 mg: “AUC(0-72 h), geometric mean” read 11100 ng·h/mL.

Series 2 — read-out: cell-free assay; technique: competition with immobilised ligand; concentration: 1 µM
Compound: NS(=O)(=O)c1cc(NC(=O)C2(c3ccccc3Cl)CC2)ccc1Oc1cccc(Cl)c1
The remaining binding was 100% (Calcium/calmodulin-dependent protein kinase kinase 1 (CAMKK1, Homo sapiens, UniProt Q8N5S9)).
The remaining binding was 100% (Mitogen-activated protein kinase kinase kinase 2 (MAP3K2, Homo sapiens, UniProt Q9Y2U5)).
Tyrosine-protein kinase ITK/TSK (ITK, Homo sapiens, UniProt Q08881) — remaining binding: 79%.
The remaining binding was 100% (Mitogen-activated protein kinase 14 (MAPK14, Homo sapiens, UniProt Q16539)).
For High affinity nerve growth factor receptor (NTRK1, Homo sapiens, UniProt P04629): remaining binding read 100%.
Hormonally up-regulated neu tumor-associated kinase (HUNK, Homo sapiens, UniProt P57058) — remaining binding: 75%.
Serine/threonine-protein kinase PAK 6 (PAK6, Homo sapiens, UniProt Q9NQU5) — remaining binding: 100%.
The remaining binding was 80% (Tyrosine-protein kinase Lck (LCK, Homo sapiens, UniProt P06239)).
It gave 100% for remaining binding (Ribosomal protein S6 kinase alpha-1, C-terminal kinase domain (RPS6KA1, Homo sapiens, UniProt Q15418)).
For Ribosomal protein S6 kinase beta-1 (RPS6KB1, Homo sapiens, UniProt P23443): remaining binding read 81%.
Mitogen-activated protein kinase 12 (MAPK12, Homo sapiens, UniProt P53778) — remaining binding: 54%.
For TGF-beta receptor type-2 (TGFBR2, Homo sapiens, UniProt P37173): remaining binding read 64%.
For Serine/threonine-protein kinase TBK1 (TBK1, Homo sapiens, UniProt Q9UHD2): remaining binding read 62%.
Ephrin type-A receptor 6 (EPHA6, Homo sapiens, UniProt Q9UF33) — remaining binding: 54%.
For 5'-AMP-activated protein kinase catalytic subunit alpha-2 (PRKAA2, Homo sapiens, UniProt P54646): remaining binding read 87%.
It gave 100% for remaining binding (Activin receptor type-1 (ACVR1, Homo sapiens, UniProt Q04771)).
It gave 89% for remaining binding (Serine/threonine-protein kinase RIO2 (RIOK2, Homo sapiens, UniProt Q9BVS4)).
It gave 98% for remaining binding (Ribosomal protein S6 kinase alpha-1, N-terminal kinase domain (RPS6KA1, Homo sapiens, UniProt Q15418)).
Serine/threonine-protein kinase 25 (STK25, Homo sapiens, UniProt O00506) — remaining binding: 100%.
Mitogen-activated protein kinase 7 (MAPK7, Homo sapiens, UniProt Q13164) — remaining binding: 92%.
It gave 100% for remaining binding (Protein kinase C eta type (PRKCH, Homo sapiens, UniProt P24723)).
The remaining binding was 100% (Serine/threonine-protein kinase mTOR (MTOR, Homo sapiens, UniProt P42345)).
It gave 67% for remaining binding (Mitogen-activated protein kinase kinase kinase 9 (MAP3K9, Homo sapiens, UniProt P80192)).
Microtubule-associated serine/threonine-protein kinase 1 (MAST1, Homo sapiens, UniProt Q9Y2H9) — remaining binding: 100%.
For Dual specificity protein kinase CLK3 (CLK3, Homo sapiens, UniProt P49761): remaining binding read 72%.

Series 3 — read-out: enzyme activity; action: inhibitor; concentration: 0.5 µM; reference: control
Target: Dual specificity tyrosine-phosphorylation-regulated kinase 2 (DYRK2, Homo sapiens, UniProt Q92630)
Target sequence (Q92630 1-601): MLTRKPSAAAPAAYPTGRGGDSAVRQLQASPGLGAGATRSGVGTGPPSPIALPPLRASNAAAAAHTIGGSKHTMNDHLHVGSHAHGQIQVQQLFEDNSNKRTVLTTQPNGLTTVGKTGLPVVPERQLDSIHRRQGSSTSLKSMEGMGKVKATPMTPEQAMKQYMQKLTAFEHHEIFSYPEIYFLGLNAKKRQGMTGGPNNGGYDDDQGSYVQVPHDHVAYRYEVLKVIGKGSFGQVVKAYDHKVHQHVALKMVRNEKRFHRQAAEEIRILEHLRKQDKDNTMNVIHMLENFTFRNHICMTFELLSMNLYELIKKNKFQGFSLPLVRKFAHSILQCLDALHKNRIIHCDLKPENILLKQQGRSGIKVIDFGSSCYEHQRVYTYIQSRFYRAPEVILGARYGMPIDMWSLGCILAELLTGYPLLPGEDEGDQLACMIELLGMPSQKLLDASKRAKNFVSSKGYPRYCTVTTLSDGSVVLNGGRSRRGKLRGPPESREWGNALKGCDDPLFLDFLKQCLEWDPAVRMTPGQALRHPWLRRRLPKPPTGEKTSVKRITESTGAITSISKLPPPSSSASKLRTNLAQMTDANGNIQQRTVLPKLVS
`CC(C)[C@H](CO)Nc1nc(Nc2cc(N)cc(Cl)c2)c2ncn(C(C)C)c2n1` has a remaining activity of 93.2%.
`COc1ccc(CNC(=O)Nc2ncc([N+](=O)[O-])s2)cc1` has a remaining activity of 103%.
`C#Cc1cccc(Nc2ncnc3cc(OCCOC)c(OCCOC)cc23)c1` has a remaining activity of 85%.
The remaining activity of `COc1cc2nccc(Oc3ccc(NC(=S)NC(=O)c4ccccc4C)cc3)c2cc1OC` is reported as 87.5%.
For `COc1ccc(OC)c2c(=S)c3ccccc3[nH]c12`, the remaining activity was 96.8%.
`O=c1c2ccccc2[nH]c(=S)n1CCN1CCC(=C(c2ccc(F)cc2)c2ccc(F)cc2)CC1` gave a remaining activity of 95.4%.
`Nc1[nH]nc2nc3ccccc3nc12` has a remaining activity of 91.6%.
With `OCC(O)CCON=C1C(c2c(O)[nH]c3ccccc23)=Nc2ccccc21` (centres unmarked) the remaining activity was 61.4%.
For `COc1cc2ncnc(Nc3ccc(F)c(Cl)c3)c2cc1OCCCN1CCOCC1`, the remaining activity was 98.2%.
With `O=C(Nc1cccc(Nc2cc(Nc3cccc(C(F)(F)F)c3)ncn2)c1)C1CC1` the remaining activity was 99.8%.
With `Cn1c2ccccc2c2c3c(c4c5ccccc5n(CCC#N)c4c21)CNC3=O` the remaining activity was 48.9%.
The remaining activity of `Oc1ccc(-c2nc(-c3ccncc3)c(-c3ccc(F)cc3)[nH]2)cc1` is reported as 99.3%.
`Nc1ccc2ncnc(NCCc3ccc(Oc4ccccc4)cc3)c2c1` gave a remaining activity of 89.6%.
`Cn1sc(=O)n(Cc2ccccc2)c1=O` has a remaining activity of 104%.
`N#CC(C#N)=C(N)/C(C#N)=C/c1ccc(O)cc1` has a remaining activity of 117%.

Series 4 — host: mouse; sample: microsomes or S9; concentration: 2 µM; time: 0.5 h
With `CC(C)(C)OC(=O)N1CCC2(CC1)NN=C1C=C(N3CCN(c4ccccc4F)CC3)N=CN12` the remaining compound was 78.2%.
`N#Cc1cnn2c(O)cc(Cc3ccccc3)nc12` has a remaining compound of > 100%.
`CN(CCOC(=O)c1ccc(C(C)(C)C)cc1)C1=NS(=O)(=O)c2ccccc21` gave a remaining compound of < 1%.
`Clc1ccc(C2=Nc3c(nnn3Cc3ccccc3)C3=NCCN23)cc1` gave a remaining compound of > 100%.
`COc1cc2c(=O)n(CCO)c(=O)n(CCCN(C)C)c2cc1OC` has a remaining compound of 72.7%.

Excerpt of the above (series 2):
It gave 100% for remaining binding (Activin receptor type-1 (ACVR1, Homo sapiens, UniProt Q04771)).
It gave 89% for remaining binding (Serine/threonine-protein kinase RIO2 (RIOK2, Homo sapiens, UniProt Q9BVS4)).
It gave 98% for remaining binding (Ribosomal protein S6 kinase alpha-1, N-terminal kinase domain (RPS6KA1, Homo sapiens, UniProt Q15418)).
